Measurements of several laboratories.
Values joined by “and” are separate records of one study, mostly repeats; a detail may differ. ± marks the error that the study gave.

| SMILES | target or system | test | system | conditions | how to read | endpoint | result |
| --- | --- | --- | --- | --- | --- | --- | --- |
| CC[S+]([O-])c1nc(-c2ccccc2)cc(C(F)(F)F)n1 (stereo not drawn) | transportin-1/2 | FUS nuclear import, high content imaging | HeLa Kyoto reporter | 0.0158 µM, 2 h |  | cells with nuclear reporter | 95.9% and 92.7% |
| CC(C)C(=O)NCC(=O)O |  | binding, MIDAS equilibrium dialysis LC-MS | A2AR-BRIL thermostabilized | concentration not given | relative to: no-protein control | log2 fold change | -0.509 |
| CN(C(=O)n1cnc(-c2ccc[n+]([O-])c2)c1)C1CCCCC1 | dopamine transporter |  |  | concentration not given |  | inhibition | -11.6% |
| COc1cc(-c2cc(-c3ccc(N4CCNCC4)cc3)cnc2C)cc(OC)c1OC | human CK1 | enzyme activity, inhibitor |  | 1 µM |  | inhibition | 7% |
| CCCCC[S+]([O-])c1n[nH]c(N)n1 (stereo not drawn) | human THEMIS domain | binding, affinity selection mass spectrometry |  |  | relative to: other proteins in batch | fold enrichment | 1.02 |
| CCS(=O)(=O)c1nc(C2CC2)cc(C(F)(F)F)n1 | transportin-1/2 | FUS nuclear import, high content imaging | HeLa Kyoto reporter | 5 µM, 2 h |  | cells with nuclear reporter | 94.7% and 94% |
| C=CC(=O)N1CCN(c2nc(=O)n(-c3c(C)ccnc3C(C)C)c3nc(-c4c(O)cccc4F)c(F)cc23)[C@@H](C)C1 | NRAS wild type (human) | SOS-mediated nucleotide exchange, inhibitor |  | concentration not given |  | inhibition | inactive |
| COc1cc(-c2cn(C)c(=O)c3cnccc23)cc(OC)c1CN1CCN(CCCCCOc2cc(-c3scnc3C)ccc2CNC(=O)[C@@H]2C[C@@H](O)CN2C(=O)[C@@H](NC(=O)C2(F)CC2)C(C)(C)C)CC1 | BRD9 and VHL-elongin C-elongin B | SPR | immobilized BRD9 |  | relative to: binary KD over ternary KD | cooperativity alpha | 0.6 |
| O=C(NS(=O)(=O)c1ccccc1-c1ccccc1)c1cc2ccccc2o1 | estrogen receptor alpha, human | reporter gene | MCF7-MVLN | 24 h |  | IC50 | > 20 µM |
| CC1CCCN(C(=O)c2cc3ncccn3n2)C1 (stereo not drawn) | human THEMIS domain | binding, affinity selection mass spectrometry |  |  | relative to: other proteins in batch | log fold enrichment | -0.108 |
| Cn1cc(-c2ccc(-c3cncc(Cl)c3N3CCC4(CCNC4=O)CC3)cc2)cn1 | COLO 205 | microarray, refers to: CASC5 |  | concentration not given, 2 h, gene set AF15q14 | relative to: untreated cells | fold change in expression | -2.8 |
| O=C(NN=Cc1ccc(C[n+]2ccccc2)cc1)c1ccc2ccc3ccc(C(=O)NN=Cc4ccc(C[n+]5ccccc5)cc4)nc3c2n1.[Br-].[Br-] | 22CTA telomeric G4-DNA antiparallel | FRET melting |  | 1 µM, K10 buffer, DNA 0.2 µM |  | ΔTm | 34.8 ± 0.8 °C |
| O=C(Nc1ccn(Cc2ccc(O)cc2C(F)(F)F)n1)c1c(F)cccc1F | human GABA-A receptor | receptor activity, agonist |  |  |  | EC50 | > 10000 nM |
| CCc1oc2c([C@H](CO)N(CC)CC)cccc2c1C | S1P receptors, human | agonist, NanoBiT G-protein dissociation |  | concentration not given |  | activity | no effect |
| [Ca+2] | human TRPA1 | ion current, two-electrode voltage clamp | Xenopus oocytes | +80 mV, together with: AITC |  | desensitization time constant | 10.1 s and 13.5 s and 6.87 s and 6.15 s and 19 s |
| C=CC(=O)Nc1cc(Nc2nccc(-c3cn(C)c4ccccc34)n2)c(OC)cc1N(C)CCN(C)C | DUSP4 human | cysteine engagement, chemoproteomic profiling, refers to: DUSP4 peptide 244-252 | NCI-H2073 | 10 µM, 2 h | relative to: DMSO | log2 fold change | 1.6 |
| O=C(O)CCCOc1cccc(CNC(=O)C#Cc2cn(Cc3ccc(C(=O)O)cc3)c(=O)[nH]c2=O)c1 | MMP-1 | inhibitor, FRET |  | 10 µM |  | remaining MMP-1 activity | 103 ± 1% |
| N#Cc1ccc(COc2cccc(C3CCN(Cc4nc5ccc(C(=O)O)cc5n4C[C@@H]4CCO4)CC3)n2)c(F)c1 | sodium channel |  |  | 10 µM |  | inhibition | 61% |
| COCCN(C)c1ccc2cc(C(=O)NS(=O)(=O)c3ccccc3-c3ccccc3)oc2c1 | estrogen receptor alpha, human | reporter gene | MCF7-MVLN | 24 h |  | IC50 | > 15.5 µM |
| O=CC[C@H](O)[C@H](O)COP(=O)(O)O |  | binding, MIDAS equilibrium dialysis LC-MS | A2AR-BRIL thermostabilized | concentration not given | relative to: no-protein control | log2 fold change | -0.111 |
| C/C(=C\c1csc(C)n1)[C@@H]1C/C=C2\CCC[C@H](C)[C@H](O)[C@@H](C)C(=O)[C@](C)(CC=CCC(=O)OC2)[C@@H](O)CC(=O)O1 | tubulin | tubulin assembly, stimulator | cell-free |  |  | EC50 | 2400 ± 100 nM |

Repeated from above:
| SMILES | target or system | test | system | conditions | how to read | endpoint | result |
| --- | --- | --- | --- | --- | --- | --- | --- |
| O=CC[C@H](O)[C@H](O)COP(=O)(O)O |  | binding, MIDAS equilibrium dialysis LC-MS | A2AR-BRIL thermostabilized | concentration not given | relative to: no-protein control | log2 fold change | -0.111 |
| C/C(=C\c1csc(C)n1)[C@@H]1C/C=C2\CCC[C@H](C)[C@H](O)[C@@H](C)C(=O)[C@](C)(CC=CCC(=O)OC2)[C@@H](O)CC(=O)O1 | tubulin | tubulin assembly, stimulator | cell-free |  |  | EC50 | 2400 ± 100 nM |
| CCCCC[S+]([O-])c1n[nH]c(N)n1 (stereo not drawn) | human THEMIS domain | binding, affinity selection mass spectrometry |  |  | relative to: other proteins in batch | fold enrichment | 1.02 |
